Published values from different studies.
Compare with care: the assays were run in different laboratories. “And” joins repeats or separate records; there may be more than shown. ± gives the spread as reported.
Muscleblind-like protein 1 with (CCUG)6 RNA: Muscleblind-like protein 1, with (CCUG)6 RNA (Homo sapiens, UniProt Q9NR56)
Sequence of UniProt Q9NR56 (whole entry, looked up): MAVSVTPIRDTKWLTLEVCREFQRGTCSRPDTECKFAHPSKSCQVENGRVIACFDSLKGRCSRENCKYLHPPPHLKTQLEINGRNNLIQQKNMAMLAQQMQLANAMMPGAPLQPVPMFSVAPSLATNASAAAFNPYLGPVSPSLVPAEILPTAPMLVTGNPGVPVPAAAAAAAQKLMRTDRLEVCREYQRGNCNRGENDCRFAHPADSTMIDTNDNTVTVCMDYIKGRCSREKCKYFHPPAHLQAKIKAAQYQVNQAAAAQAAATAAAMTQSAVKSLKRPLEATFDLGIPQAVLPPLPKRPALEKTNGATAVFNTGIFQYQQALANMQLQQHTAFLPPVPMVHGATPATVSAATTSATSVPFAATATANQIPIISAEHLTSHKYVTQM
Sequence of UniProt Q9Y231 (whole entry, looked up): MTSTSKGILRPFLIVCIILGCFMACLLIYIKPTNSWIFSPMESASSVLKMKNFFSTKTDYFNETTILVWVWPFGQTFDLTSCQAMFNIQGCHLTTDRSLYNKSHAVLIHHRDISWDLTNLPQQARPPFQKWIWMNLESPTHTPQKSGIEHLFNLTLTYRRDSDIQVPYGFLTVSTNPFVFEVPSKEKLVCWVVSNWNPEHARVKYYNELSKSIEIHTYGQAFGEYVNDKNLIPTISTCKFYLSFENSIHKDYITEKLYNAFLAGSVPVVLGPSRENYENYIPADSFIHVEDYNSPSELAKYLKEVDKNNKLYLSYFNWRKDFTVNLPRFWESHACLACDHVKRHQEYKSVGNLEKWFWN
Sequence of UniProt P46059 (whole entry, looked up): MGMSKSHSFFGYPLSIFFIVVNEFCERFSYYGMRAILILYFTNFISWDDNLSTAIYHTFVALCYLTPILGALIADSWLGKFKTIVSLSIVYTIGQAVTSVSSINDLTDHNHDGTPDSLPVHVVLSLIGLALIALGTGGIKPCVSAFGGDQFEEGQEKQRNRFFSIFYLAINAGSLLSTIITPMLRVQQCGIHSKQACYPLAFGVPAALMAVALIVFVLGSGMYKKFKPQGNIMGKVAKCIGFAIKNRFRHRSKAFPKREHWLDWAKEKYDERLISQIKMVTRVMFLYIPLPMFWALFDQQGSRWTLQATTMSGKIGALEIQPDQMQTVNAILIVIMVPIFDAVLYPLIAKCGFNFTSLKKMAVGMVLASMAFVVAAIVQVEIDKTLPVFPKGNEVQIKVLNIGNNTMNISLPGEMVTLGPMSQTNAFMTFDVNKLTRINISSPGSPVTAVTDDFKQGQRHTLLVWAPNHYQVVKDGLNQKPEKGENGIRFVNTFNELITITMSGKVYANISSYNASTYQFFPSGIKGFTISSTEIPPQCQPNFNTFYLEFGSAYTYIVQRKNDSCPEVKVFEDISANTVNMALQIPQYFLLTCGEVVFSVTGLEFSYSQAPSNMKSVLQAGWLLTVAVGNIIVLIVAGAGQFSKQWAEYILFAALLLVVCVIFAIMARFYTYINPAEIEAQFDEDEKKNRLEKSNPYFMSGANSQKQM
Sequence of UniProt Q12884 (whole entry, looked up): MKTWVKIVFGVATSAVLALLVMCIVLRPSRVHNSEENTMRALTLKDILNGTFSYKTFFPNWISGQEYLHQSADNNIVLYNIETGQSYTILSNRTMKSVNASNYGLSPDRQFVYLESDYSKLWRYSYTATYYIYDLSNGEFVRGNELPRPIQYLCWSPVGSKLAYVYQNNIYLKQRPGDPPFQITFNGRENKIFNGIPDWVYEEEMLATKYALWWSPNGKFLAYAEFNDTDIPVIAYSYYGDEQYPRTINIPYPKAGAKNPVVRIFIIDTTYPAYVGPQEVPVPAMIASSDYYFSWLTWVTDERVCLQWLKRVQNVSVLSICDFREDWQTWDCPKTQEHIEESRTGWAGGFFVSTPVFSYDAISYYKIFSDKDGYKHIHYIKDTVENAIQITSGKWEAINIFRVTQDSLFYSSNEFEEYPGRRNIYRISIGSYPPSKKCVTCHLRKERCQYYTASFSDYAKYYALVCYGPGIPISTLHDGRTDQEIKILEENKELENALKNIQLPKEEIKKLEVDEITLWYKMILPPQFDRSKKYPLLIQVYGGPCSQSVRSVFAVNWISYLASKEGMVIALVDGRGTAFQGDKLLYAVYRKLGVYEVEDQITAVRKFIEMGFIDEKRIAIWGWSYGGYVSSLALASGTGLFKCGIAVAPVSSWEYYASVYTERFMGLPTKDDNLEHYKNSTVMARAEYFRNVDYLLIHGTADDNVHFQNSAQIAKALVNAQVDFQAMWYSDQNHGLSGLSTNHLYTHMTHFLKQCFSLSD
Sequence of UniProt P51993 (whole entry, looked up): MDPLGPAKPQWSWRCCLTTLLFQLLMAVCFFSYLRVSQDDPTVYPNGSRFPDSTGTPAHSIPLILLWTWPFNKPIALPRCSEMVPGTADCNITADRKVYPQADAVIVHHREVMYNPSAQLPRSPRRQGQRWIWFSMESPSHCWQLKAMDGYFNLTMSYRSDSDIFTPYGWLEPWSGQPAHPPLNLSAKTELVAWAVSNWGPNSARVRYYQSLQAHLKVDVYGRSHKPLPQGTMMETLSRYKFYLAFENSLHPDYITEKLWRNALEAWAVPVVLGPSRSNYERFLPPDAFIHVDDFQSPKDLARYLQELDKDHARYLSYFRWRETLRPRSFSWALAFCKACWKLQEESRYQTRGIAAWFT
Sequence of UniProt Q9Y5Z0 (whole entry, looked up): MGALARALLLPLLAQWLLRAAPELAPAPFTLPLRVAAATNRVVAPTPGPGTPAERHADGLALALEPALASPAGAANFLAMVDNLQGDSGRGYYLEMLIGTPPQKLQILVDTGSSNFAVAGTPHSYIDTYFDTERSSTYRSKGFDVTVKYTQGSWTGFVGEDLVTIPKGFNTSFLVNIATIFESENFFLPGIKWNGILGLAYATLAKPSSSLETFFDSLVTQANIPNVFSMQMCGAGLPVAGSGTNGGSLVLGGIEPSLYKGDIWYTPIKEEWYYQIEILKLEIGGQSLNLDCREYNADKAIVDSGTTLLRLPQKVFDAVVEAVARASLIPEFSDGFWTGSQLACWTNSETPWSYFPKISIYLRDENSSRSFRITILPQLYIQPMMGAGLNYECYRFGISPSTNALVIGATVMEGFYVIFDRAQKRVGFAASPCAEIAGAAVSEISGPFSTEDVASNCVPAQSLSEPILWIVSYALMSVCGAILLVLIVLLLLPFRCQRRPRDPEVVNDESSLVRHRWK
Sequence of UniProt P25103 (whole entry, looked up): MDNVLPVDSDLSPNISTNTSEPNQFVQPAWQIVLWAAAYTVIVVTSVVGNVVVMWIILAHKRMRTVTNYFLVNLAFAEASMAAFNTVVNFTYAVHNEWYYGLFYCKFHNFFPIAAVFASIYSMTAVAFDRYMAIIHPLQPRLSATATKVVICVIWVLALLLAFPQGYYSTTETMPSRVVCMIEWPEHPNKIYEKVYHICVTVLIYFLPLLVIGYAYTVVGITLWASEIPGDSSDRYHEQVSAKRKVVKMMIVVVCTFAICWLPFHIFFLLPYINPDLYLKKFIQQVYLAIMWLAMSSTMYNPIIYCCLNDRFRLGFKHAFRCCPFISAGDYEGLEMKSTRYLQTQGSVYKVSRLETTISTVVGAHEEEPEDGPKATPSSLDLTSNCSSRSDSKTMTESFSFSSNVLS

Compound | target | assay | test system | conditions | Ki
CCC[C@H](NC(=O)[C@H](COC(=O)c1ccccc1)NC(=O)[C@@H](N)Cc1ccccc1)C(=O)O | Solute carrier family 15 member 1 (SLC15A1, Homo sapiens, UniProt P46059) | [14C]Gly-Sar uptake, inhibitor | Caco-2 cells | added: [14C]Gly-Sar 20 µM | 120000 nM
Nc1nc2c(ncn2[C@@H]2O[C@H](COP(=O)(O)OP(=O)(O)O[C@H]3O[C@@H](CNC(=O)c4ccc(-c5ccccc5)cc4)[C@@H](O)[C@@H](O)[C@@H]3F)[C@@H](O)[C@H]2O)c(=O)[nH]1 | 4-galactosyl-N-acetylglucosaminide 3-alpha-L-fucosyltransferase FUT6 (FUT6, Homo sapiens, UniProt P51993) | enzyme activity, inhibitor | – | – | 10400 nM
COc1cccc(CNC[C@@H](O)[C@H](Cc2ccccc2)NC(=O)c2cc(C(=O)N[C@H](C)c3ccccc3)cc(N(C)S(C)(=O)=O)c2)c1 | Beta-secretase 2 (BACE2, Homo sapiens, UniProt Q9Y5Z0) | – | – | – | 137 nM
Cc1ccccc1-c1cc(N2CCN(C)CC2)ccc1N(C)C(=O)C(C)(C)c1cc(C(F)(F)F)cc(C(F)(F)F)c1 | Substance-P receptor (TACR1, Homo sapiens, UniProt P25103) | binding | – | – | 2.57 nM
CN(C)CCNC(=O)c1cccc2c(NCCCCc3c(N)nc(N)nc3N)c3ccccc3nc12 | Muscleblind-like protein 1 with (CCUG)6 RNA | MBNL1-RNA binding, gel mobility shift | – | 100 nM tRNA, added: (CCUG)6 RNA, 350 nM MBNL1 | 2800 nM and 3000 nM
Nc1nc2c(ncn2[C@@H]2O[C@H](COP(=O)(O)OP(=O)(O)O[C@H]3O[C@@H](CNC(=O)Cc4ccccc4)[C@@H](O)[C@@H](O)[C@@H]3F)[C@@H](O)[C@H]2O)c(=O)[nH]1 | 4-galactosyl-N-acetylglucosaminide 3-alpha-L-fucosyltransferase 9 (FUT9, Homo sapiens, UniProt Q9Y231) | enzyme activity, inhibitor | – | – | 10600 nM
N#C[C@@H]1CCCN1C(=O)CNC(=O)c1ccnc2ccc(/C=C/C(=O)NCc3cn(CCOCCOCCOCCNC(=O)CCCC[C@@H]4SC[C@@H]5NC(=O)N[C@@H]54)nn3)cc12 | Prolyl endopeptidase FAP (FAP, Homo sapiens, UniProt Q12884) | enzyme activity, inhibitor, fluorescence | – | with preincubation | 3.8 nM
COc1ccc2nc3cc(Cl)ccc3c(NCCCCc3c(N)nc(N)nc3N)c2c1 | Muscleblind-like protein 1 with (CCUG)6 RNA | MBNL1-RNA binding, gel mobility shift | – | no tRNA, added: (CCUG)6 RNA, 350 nM MBNL1 | 2500 ± 200 nM

Excerpt of the above:
Compound | target | assay | test system | conditions | Ki
COc1cccc(CNC[C@@H](O)[C@H](Cc2ccccc2)NC(=O)c2cc(C(=O)N[C@H](C)c3ccccc3)cc(N(C)S(C)(=O)=O)c2)c1 | Beta-secretase 2 (BACE2, Homo sapiens, UniProt Q9Y5Z0) | – | – | – | 137 nM
